Measured values pooled from the literature.
Protocols differ between the studies behind these lines. Several values in a cell are separate wells, animals, samples, runs or records. Numbers after ± are the reported error.
UniProt Q13043, sequence (whole entry, looked up): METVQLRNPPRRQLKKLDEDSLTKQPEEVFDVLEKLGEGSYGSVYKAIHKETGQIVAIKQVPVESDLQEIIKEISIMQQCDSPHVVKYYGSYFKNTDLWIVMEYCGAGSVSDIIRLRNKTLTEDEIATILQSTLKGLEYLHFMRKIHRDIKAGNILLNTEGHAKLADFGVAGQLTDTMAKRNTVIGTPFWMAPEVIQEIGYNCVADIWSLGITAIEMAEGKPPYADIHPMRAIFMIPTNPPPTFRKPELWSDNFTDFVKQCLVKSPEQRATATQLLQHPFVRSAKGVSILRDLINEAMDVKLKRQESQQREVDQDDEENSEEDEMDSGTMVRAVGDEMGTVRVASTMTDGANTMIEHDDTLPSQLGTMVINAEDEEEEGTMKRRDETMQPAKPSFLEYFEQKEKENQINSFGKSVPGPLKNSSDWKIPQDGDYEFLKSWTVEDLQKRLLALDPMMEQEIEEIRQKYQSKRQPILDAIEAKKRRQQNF
UniProt P41146, sequence (whole entry, looked up): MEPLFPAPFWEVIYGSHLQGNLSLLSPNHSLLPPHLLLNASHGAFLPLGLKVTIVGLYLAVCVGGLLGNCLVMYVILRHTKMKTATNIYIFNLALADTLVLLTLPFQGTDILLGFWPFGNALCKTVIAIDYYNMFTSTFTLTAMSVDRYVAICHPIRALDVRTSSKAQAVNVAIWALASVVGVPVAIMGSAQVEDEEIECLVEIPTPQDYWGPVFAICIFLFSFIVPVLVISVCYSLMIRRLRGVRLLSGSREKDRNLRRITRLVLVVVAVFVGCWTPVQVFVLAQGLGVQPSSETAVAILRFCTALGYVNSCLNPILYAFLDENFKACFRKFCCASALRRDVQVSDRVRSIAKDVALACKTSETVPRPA
UniProt Q16539, sequence (whole entry, looked up): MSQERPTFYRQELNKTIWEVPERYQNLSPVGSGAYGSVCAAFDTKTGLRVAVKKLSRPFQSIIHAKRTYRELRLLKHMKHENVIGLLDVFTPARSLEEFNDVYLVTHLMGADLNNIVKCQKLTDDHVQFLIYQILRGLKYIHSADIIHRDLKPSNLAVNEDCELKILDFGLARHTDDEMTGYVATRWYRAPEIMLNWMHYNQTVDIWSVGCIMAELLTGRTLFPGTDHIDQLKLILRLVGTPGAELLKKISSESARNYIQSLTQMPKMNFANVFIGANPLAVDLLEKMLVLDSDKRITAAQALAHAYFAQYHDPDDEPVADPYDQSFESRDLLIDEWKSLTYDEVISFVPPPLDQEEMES
UniProt Q05513, sequence (whole entry, looked up): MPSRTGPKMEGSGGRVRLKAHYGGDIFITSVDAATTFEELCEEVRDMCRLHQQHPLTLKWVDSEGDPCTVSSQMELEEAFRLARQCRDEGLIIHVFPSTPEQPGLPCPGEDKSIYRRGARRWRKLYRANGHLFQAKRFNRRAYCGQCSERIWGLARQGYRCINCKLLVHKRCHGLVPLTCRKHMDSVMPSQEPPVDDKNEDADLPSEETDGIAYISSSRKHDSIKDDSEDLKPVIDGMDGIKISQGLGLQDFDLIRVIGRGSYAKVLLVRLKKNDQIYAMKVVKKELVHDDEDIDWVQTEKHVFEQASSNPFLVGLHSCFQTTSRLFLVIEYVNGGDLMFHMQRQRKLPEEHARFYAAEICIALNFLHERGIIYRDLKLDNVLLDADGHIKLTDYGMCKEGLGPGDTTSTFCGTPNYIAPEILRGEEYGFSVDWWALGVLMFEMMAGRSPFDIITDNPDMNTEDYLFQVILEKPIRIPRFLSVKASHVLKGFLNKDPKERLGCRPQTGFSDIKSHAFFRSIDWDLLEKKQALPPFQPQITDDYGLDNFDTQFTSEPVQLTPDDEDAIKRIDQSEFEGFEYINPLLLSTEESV

COc1ccccc1-c1n[nH]c2nc(NC3CCN(C(=O)Cc4ccc(F)cc4F)CC3)ncc12 has a relative abundance of 1.04 (bead binding, competition bead pull-down, refers to: LMJF.32.3310; Leishmania donovani extract; 10 µM; reference: vehicle).
The CC50 of Oc1ccc([C@@H]2Oc3ccc(/C=C/c4cc(O)cc(O)c4)cc3[C@H]2c2cc(O)cc(O)c2)cc1 is reported as 27.1 µM (human cells; 48 (unit not given)).
COC(=O)c1c(C)cc(O)c(=O)c(O)c1C(=O)OC has a CC50 of 38 ± 2 µM (HepDES19).
COc1cc(/C=C/c2ccc3c(c2)[C@@H](c2cc(OC)cc(OC)c2)[C@H](c2ccc(O)cc2)O3)cc(OC)c1 gave a CC50 of 1030 µM (human cells; 1 (unit not given)).
The CC50 of CCOC(=O)c1cc(O)c(=O)c(O)cc1C is reported as 93 ± 25 µM (HepDES19).
For CC1CC(C(F)F)n2nc(C(=O)O)nc2N1 (stereo not shown), the CC50 was over 100 µM (Vero (eGFP); 15 h).
COc1cc(/C=C/c2ccc3c(c2)[C@@H](c2cc(O)cc(O)c2)[C@H](c2ccc(O)cc2)O3)cc(OC)c1 has a CC50 of 26.2 µM (human cells; 48 (unit not given)).
The CC50 of Cc1cc(O)c(=O)c(O)cc1C(=O)O is reported as over 100 µM (HepDES19).
C[C@H](NC(=O)Cc1cc(F)cc(F)c1)C(=O)N[C@@H]1C(=O)N(C)c2ccccc2-c2ccccc21 gave a CC50 of 31.5 µM (Huh-7.5.1; cell growth or viability, ATP luminescence; 48 h).
The CC50 of Cc1ccccc1CN1CCC(C(=O)N2CCc3ccccc32)CC1 is reported as over 100 µM (Vero (eGFP); 15 h).
COc1cc(OC)cc([C@@H]2c3cc(/C=C/c4cc(O)cc(O)c4)ccc3O[C@H]2c2ccc(O)cc2)c1 has a CC50 of 1250 µM (human cells; 1 (unit not given)).
The cell growth of Cc1cc(C(=O)Nc2nc3cccc(C)c3n2[C@H]2CCCCN(C(=O)/C=C/CN(C)C)C2)ccn1 is reported as 3000% and 4800% and 4130% (Trypanosoma brucei brucei; CLK1 C215S mutant expressing; 10 x EC50, 36 h).
With CCCCCCCCCCCCCC(=O)N[C@@H](Cc1ccccc1)C(=O)N[C@@H](Cc1ccccc1)C(=O)N[C@@H](Cc1ccccc1)C(=O)N[C@@H](Cc1ccc(O)cc1)C(=O)NCC(=O)N[C@@H](CCCNC(=N)N)C(=O)N[C@@H](CCCCN)C(=O)N[C@@H](CCCCN)C(=O)N[C@@H](CCCNC(=N)N)C(=O)N[C@@H](CCCNC(=N)N)C(=O)N[C@@H](CCC(N)=O)C(=O)N[C@@H](CCCNC(=N)N)C(=O)N[C@@H](CCCNC(=N)N)C(=O)N[C@@H](CCCNC(=N)N)C(=O)O the CC50 was 21 µM (RAW264.7; cell growth or viability).
For CC(C)(C)C(=O)OCOP(=O)(OCOC(=O)C(C)(C)C)C1CCCN(O)C1=O (stereo not shown), the log LC50 was over -4 log M (EKVX).
With CC[C@H](C)[C@H](NC(=O)[C@H](CO)NC(=O)[C@H](Cc1ccc(O)cc1)NC(=O)[C@H](Cc1ccc(O)cc1)NC(=O)[C@H](CC(N)=O)NC(=O)CNC(=O)[C@H](CO)NC(=O)[C@H](Cc1ccc(O)cc1)NC(=O)[C@H](CO)NC(=O)[C@H](CO)NC(=O)[C@H](CC(N)=O)NC(=O)COCCOCCNC(=O)CN1CCN(CC(=O)O)CCN(CC(=O)O)CCN(CC(=O)O)CC1)C(=O)N[C@@H](CC(C)C)C(N)=O [copper-64 labelled] the tissue uptake was 11.9 %ID/mL (dynamic PET; KPC mouse Ptf1a-CreER tdTomato, pancreas; intravenous, 4.6 MBq/mouse, 0.4 min, 84 d after tamoxifen).
Under “revertant colonies per plate”, Cc1nc2cccc(OCC(C)(C)C(=O)NC(C)C)c2c(N)c1C(=O)[O-].[Na+] is recorded as 14 ± 1 (Salmonella typhimurium; TA1535; 0.32 mg per plate, without S9, plate incorporation).
For Cc1cc(-n2c(=O)ccc3cnc4[nH]ccc4c32)ccc1F, the CC50 was over 60 µM (Calu-3; cell growth or viability, resazurin).
For CCOC(=O)c1c(-c2ccccc2)oc2c([N+](=O)[O-])cc([N+](=O)[O-])cc12, the CC50 was over 100 µM (Vero (eGFP); 15 h).
For Cc1cc(O)c(=O)c(O)cc1C(=O)c1ccccc1, the CC50 was 35 ± 11 µM (HepDES19).
CC(C)[C@H](O)C(=O)N[C@@H](C)C(=O)N[C@@H]1C(=O)N(C)CCc2ccccc21 has a CC50 of over 64 µM (Huh-7.5.1; cell growth or viability, ATP luminescence; 48 h).
With N=C(N)NCCC[C@H](NC(=O)[C@H](CCCNC(=N)N)NC(=O)[C@H](CCCNC(=N)N)NC(=O)[C@H](CCC(N)=O)NC(=O)[C@H](CCCNC(=N)N)NC(=O)[C@H](CCCNC(=N)N)NC(=O)[C@H](CCCCN)NC(=O)[C@H](CCCCN)NC(=O)[C@H](CCCNC(=N)N)NC(=O)CNC(=O)[C@H](Cc1ccc(O)cc1)NC(=O)[C@H](Cc1ccccc1)NC(=O)[C@H](Cc1ccccc1)NC(=O)[C@H](Cc1ccccc1)NC(=O)Cc1ccc2ccccc2c1)C(=O)O the CC50 was 36.6 µM (RAW264.7; cell growth or viability).
For CS(C)(=O)=Nc1ccc(-c2ccc(-c3nc4cc(O[C@@H]5CO[C@H]6[C@@H]5OC[C@H]6O)[nH]c4cc3F)cc2)cc1, the inhibition was -1% (Nociceptin receptor (OPRL1, Homo sapiens, UniProt P41146); calcium signal, antagonist; 10 µM).
CC(C)C(=O)OC[C@H]1O[C@@](C#N)(n2ccc(N)nc2=O)[C@H](O)[C@@H]1O gave a CC50 of 12.5 ± 5.5 µM (CEM).
For CC(=O)c1c(C)cc(O)c(=O)c(O)c1Br, the CC50 was 43 ± 4.1 µM (HepDES19).
CCC(C)C1OC2(CCC1C)CC1CC(C/C=C(\C)C(OC3CC(OC)C(OC4CC(OC)C(O)C(C)O4)C(C)O3)C(C)/C=C/C=C3\COC4C(O)C(C)=CC(C(=O)O1)C34O)O2 (stereo not shown) has a CC50 of 10.5 µM (FRT; cell growth or viability, MTS; 48 h).
O=C1NC2(CC2)COc2ncc(F)cc2[C@H]2COCCN2c2ccn3ncc1c3n2: “serum hepatic lipase activity” 3.6 ± 0.9 U/L (Sprague-Dawley rat, female, serum; oral, 2.5 mg/kg/day, end of treatment, 4-week subacute toxicity).
With O=C(c1ccco1)n1nnc2ccccc21 the CC50 was over 100 µM (Vero (eGFP); 15 h).
For CC(C)[C@H]1NC(=O)C[C@H]2/C=C/CCSSC[C@@H](NC1=O)C(=O)N[C@H](Cc1cccc3ccccc13)C(=O)NCC(=O)O2, the inhibition was 3.1% (PRKCZ (Homo sapiens, UniProt Q05513); enzyme activity, inhibitor; 10 µM).
With CN(C)[C@H]1C[C@@]23CC[C@@]4(O2)C(=CC[C@]2(C)[C@@H](c5ccc6ccncc6c5)CC[C@H]24)C=C3[C@@H](O)[C@@H]1O the inhibition was 6.4% (STK4 (Homo sapiens, UniProt Q13043); ATP probe labelling, inhibitor, KiNativ profiling; 0.1 µM).
For O=C1NC(=O)c2c1c1cc(F)c[n+]3c1c1c2c2cc(O)ccc2[n]1[Ru-4]312([N]=C=S)[S+]3CC[S+]1CC[S+]2CC3 (stereo not shown), the remaining activity was 111% (MAPK14 (Homo sapiens, UniProt Q16539); enzyme activity; 100 nM, human enzyme, added: 10 µM ATP; reference: untreated).
O=C(Nc1ccccc1SSc1ccccc1NC(=O)c1ccccc1)c1ccccc1 gave a CC50 of 20 µg/mL (MDCK; cell growth or viability, trypan blue; 72 h).
COCc1cc(O)c(=O)c(O)c(C(=O)OC)c1C(=O)OC has a CC50 of over 90 µM (HepDES19).
The viability of Cc1ccc(NS(=O)(=O)c2c(C(=O)N3CCCCCC3)c(C)n(C)c2C)c(Cl)c1 is reported as 99.4% (human cells; 0.015 µM, 60 h).
The CC50 of COC(=O)c1cn([C@H]2C[C@@H](C(=O)NCc3cccc(C(F)(F)F)c3)N(C3CCN(Cc4ccccc4)CC3)C2)nn1 is reported as over 100 µM (Vero (eGFP); 15 h).
The relative abundance of COc1ccccc1-c1n[nH]c2nc(N[C@H]3CC[C@H](NS(=O)(=O)CC(C)C)CC3)ncc12 is reported as 0.89 (bead binding, competition bead pull-down, refers to: LINJ.36.2140; Leishmania donovani extract; 10 µM; reference: vehicle).
For O=c1c(O)ccccc1O, the CC50 was over 100 µM (HepDES19).
For O=C(N[C@@H](Cc1ccccc1)C(=O)N[C@@H](C[C@@H]1CCNC1=O)C(O)S(=O)(=O)O)OCc1ccccc1 (stereo partly shown), the CC50 was 214 ± 7.2 µM (MDCK; 5 (unit not given)).

Excerpt of the above:
CCC(C)C1OC2(CCC1C)CC1CC(C/C=C(\C)C(OC3CC(OC)C(OC4CC(OC)C(O)C(C)O4)C(C)O3)C(C)/C=C/C=C3\COC4C(O)C(C)=CC(C(=O)O1)C34O)O2 (stereo not shown) has a CC50 of 10.5 µM (FRT; cell growth or viability, MTS; 48 h).
With O=C(c1ccco1)n1nnc2ccccc21 the CC50 was over 100 µM (Vero (eGFP); 15 h).
Under “revertant colonies per plate”, Cc1nc2cccc(OCC(C)(C)C(=O)NC(C)C)c2c(N)c1C(=O)[O-].[Na+] is recorded as 14 ± 1 (Salmonella typhimurium; TA1535; 0.32 mg per plate, without S9, plate incorporation).
CC(C)[C@H](O)C(=O)N[C@@H](C)C(=O)N[C@@H]1C(=O)N(C)CCc2ccccc21 has a CC50 of over 64 µM (Huh-7.5.1; cell growth or viability, ATP luminescence; 48 h).
For Cc1cc(-n2c(=O)ccc3cnc4[nH]ccc4c32)ccc1F, the CC50 was over 60 µM (Calu-3; cell growth or viability, resazurin).
O=C1NC2(CC2)COc2ncc(F)cc2[C@H]2COCCN2c2ccn3ncc1c3n2: “serum hepatic lipase activity” 3.6 ± 0.9 U/L (Sprague-Dawley rat, female, serum; oral, 2.5 mg/kg/day, end of treatment, 4-week subacute toxicity).
